Experimental data gathered from unrelated publications.
Each numbered part is a random draw from the data of one study; scales do not carry over between parts.
UniProt P10721, sequence (whole entry, unmodified, looked up): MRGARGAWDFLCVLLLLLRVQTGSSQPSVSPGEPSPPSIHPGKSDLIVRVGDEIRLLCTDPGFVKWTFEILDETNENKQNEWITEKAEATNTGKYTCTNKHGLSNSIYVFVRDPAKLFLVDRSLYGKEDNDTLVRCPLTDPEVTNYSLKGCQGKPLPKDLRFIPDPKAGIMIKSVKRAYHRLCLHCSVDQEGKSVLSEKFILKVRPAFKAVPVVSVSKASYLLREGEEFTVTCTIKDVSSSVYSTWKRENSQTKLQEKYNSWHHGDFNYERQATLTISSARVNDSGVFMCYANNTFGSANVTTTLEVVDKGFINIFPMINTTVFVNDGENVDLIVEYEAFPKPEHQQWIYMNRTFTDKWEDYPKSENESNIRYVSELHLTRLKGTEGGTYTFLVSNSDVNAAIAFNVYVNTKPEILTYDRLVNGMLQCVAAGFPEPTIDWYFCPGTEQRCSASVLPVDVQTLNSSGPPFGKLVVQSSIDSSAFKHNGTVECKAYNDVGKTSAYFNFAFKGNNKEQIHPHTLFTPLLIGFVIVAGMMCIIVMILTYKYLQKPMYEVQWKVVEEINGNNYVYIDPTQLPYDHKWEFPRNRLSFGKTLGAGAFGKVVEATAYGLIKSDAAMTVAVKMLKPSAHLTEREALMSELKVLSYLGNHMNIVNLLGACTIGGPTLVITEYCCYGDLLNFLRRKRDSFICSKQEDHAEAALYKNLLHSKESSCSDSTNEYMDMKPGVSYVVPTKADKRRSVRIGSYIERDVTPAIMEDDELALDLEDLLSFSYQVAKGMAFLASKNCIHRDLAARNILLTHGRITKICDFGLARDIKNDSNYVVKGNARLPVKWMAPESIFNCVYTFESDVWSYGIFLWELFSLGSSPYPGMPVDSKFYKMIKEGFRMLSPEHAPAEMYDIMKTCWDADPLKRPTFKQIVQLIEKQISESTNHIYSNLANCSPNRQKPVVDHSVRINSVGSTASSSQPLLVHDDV
UniProt Q05655, sequence (whole entry, looked up): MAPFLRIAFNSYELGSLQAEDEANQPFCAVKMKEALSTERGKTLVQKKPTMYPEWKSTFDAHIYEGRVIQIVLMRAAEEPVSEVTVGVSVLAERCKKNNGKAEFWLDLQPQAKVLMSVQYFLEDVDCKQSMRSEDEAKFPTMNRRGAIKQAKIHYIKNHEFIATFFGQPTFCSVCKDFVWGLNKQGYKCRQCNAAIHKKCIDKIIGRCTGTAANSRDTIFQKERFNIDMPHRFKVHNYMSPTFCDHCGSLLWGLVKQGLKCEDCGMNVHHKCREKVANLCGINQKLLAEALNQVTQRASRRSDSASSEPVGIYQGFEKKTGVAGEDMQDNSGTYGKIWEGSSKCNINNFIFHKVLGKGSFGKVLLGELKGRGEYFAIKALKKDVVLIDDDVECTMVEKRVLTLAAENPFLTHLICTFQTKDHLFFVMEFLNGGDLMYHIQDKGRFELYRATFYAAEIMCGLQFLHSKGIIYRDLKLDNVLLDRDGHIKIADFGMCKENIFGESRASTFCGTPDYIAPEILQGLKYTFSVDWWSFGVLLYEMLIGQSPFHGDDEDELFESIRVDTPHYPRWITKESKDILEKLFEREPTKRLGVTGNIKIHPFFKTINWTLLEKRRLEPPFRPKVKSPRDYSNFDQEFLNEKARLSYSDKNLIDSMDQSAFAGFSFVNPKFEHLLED
UniProt Q15208, sequence (whole entry, looked up): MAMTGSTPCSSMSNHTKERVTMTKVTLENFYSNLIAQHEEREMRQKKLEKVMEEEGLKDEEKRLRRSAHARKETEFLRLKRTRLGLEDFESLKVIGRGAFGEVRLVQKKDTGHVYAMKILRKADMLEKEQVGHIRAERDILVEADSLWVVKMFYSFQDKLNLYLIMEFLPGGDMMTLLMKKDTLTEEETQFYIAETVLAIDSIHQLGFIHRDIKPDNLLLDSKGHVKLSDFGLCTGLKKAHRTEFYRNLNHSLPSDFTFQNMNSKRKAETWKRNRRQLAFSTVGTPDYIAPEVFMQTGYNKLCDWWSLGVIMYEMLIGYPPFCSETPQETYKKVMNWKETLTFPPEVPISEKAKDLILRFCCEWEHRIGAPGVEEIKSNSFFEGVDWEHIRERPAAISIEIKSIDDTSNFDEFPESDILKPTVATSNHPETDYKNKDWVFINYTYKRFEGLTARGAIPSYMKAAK
UniProt Q99558, sequence (whole entry, looked up): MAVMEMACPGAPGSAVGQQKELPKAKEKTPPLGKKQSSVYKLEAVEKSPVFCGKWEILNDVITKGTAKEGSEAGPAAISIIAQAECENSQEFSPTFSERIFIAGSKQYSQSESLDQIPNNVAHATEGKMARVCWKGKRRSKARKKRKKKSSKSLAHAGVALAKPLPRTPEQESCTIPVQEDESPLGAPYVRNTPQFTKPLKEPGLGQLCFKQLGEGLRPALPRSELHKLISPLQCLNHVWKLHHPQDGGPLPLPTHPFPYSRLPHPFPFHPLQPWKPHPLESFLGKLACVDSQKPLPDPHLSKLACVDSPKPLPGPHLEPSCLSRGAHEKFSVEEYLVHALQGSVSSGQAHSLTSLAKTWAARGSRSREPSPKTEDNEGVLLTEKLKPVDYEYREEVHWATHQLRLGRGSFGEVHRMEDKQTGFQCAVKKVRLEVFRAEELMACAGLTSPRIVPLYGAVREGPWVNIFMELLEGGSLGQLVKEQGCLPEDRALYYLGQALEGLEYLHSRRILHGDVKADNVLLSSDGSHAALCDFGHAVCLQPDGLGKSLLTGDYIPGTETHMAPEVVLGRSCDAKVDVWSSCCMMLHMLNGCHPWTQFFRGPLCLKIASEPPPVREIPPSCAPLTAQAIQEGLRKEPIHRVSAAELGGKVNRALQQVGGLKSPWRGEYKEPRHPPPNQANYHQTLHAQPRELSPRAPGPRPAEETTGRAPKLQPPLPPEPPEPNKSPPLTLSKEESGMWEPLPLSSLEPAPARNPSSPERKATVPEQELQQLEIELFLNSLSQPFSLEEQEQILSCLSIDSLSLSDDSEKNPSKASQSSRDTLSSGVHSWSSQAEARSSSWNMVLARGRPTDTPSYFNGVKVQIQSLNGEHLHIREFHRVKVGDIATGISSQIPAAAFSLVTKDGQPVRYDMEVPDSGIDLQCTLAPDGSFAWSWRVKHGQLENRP
UniProt Q9UPZ9, sequence (whole entry, looked up): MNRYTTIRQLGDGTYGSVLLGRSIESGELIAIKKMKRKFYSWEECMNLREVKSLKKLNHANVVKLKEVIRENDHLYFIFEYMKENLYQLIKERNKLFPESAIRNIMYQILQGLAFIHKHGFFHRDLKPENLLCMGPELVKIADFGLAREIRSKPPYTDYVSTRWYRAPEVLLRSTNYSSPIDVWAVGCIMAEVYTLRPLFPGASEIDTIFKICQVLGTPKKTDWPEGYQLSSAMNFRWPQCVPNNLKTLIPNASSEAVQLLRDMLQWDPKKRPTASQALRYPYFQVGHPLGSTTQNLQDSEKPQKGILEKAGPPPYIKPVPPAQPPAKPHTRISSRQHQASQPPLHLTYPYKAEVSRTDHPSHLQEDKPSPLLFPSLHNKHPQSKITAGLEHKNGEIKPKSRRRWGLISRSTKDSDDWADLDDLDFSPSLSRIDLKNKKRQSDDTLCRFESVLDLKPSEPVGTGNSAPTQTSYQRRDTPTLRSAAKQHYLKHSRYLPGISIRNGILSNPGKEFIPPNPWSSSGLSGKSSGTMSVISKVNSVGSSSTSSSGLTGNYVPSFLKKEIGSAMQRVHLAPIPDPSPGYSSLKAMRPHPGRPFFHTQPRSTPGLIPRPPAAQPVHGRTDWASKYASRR
UniProt Q9NWZ3, sequence (whole entry, looked up): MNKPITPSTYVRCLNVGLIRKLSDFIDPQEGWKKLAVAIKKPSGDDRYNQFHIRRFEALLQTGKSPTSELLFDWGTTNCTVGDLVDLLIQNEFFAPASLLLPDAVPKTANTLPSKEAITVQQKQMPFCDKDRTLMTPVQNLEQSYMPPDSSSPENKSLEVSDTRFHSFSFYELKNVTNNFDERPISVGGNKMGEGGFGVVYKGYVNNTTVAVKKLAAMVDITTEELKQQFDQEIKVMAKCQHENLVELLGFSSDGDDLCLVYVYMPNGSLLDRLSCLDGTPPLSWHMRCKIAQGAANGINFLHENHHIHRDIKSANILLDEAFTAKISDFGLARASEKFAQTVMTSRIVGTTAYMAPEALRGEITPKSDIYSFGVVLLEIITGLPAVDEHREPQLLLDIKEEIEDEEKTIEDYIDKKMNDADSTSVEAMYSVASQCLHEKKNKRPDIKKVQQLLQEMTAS
UniProt Q13976, sequence (whole entry, looked up): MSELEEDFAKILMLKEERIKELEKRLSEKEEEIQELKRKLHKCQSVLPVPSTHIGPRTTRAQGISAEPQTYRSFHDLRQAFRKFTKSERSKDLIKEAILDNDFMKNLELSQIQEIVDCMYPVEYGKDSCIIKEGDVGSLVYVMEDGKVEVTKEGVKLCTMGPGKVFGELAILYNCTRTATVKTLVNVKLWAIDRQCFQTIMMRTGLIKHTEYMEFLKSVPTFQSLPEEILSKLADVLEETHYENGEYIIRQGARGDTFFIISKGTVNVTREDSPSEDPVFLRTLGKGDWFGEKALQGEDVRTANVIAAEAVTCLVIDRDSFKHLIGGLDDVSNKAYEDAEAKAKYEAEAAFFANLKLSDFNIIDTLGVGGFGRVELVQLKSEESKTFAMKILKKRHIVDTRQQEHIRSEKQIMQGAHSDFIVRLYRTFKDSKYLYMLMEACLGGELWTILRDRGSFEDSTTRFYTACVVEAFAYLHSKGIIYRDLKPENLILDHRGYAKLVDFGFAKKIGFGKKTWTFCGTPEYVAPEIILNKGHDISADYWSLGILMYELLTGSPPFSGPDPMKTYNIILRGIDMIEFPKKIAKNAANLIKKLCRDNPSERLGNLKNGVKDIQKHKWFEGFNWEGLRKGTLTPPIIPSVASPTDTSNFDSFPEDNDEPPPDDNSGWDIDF

Set 1
Target: TAR DNA-binding protein 43, full length, His tag (TARDBP, Homo sapiens, UniProt Q13148, residues 1-414)
Method: RNA Bind-n-Seq
Form: RNA
Matrix: in vitro
Tested at: 20 nM
Notes: 6-mer, flanks averaged, single round
With: 150 mM LiCl
Baseline: input library
Direction: higher = stronger binding
Strand	6-mer enrichment (R)
UACUAG	0.851
CCCAUA	0.992
UGGUAG	1.18
GGGAAA	1.01
CGGCAA	0.884
AUUCGC	0.868
UCCACC	0.966
AUAGCA	0.863

Set 2
Structure (SMILES): COc1cc2ncc(-c3ccccc3)nc2cc1OC
Read-out: enzyme activity
Action: inhibitor
Tested at: 0.5 µM
Baseline: control
target	remaining activity [%]
WNK2 (Homo sapiens, UniProt Q9Y3S1)	104
PRKCD (Homo sapiens, UniProt Q05655)	82.2
LYN (Homo sapiens, UniProt P07948)	90.4
IRAK4 (Homo sapiens, UniProt Q9NWZ3)	90.6
PRKG1 (Homo sapiens, UniProt Q13976)	77.1
MAP2K6 (Homo sapiens, UniProt P52564)	94.9
STK38 (Homo sapiens, UniProt Q15208)	95.9
PRKCI (Homo sapiens, UniProt P41743)	82.1
LRRK2 (Homo sapiens, UniProt Q5S007)	84.9
AKT3 (Homo sapiens, UniProt Q9Y243)	94.5
EPHA5 (Homo sapiens, UniProt P54756)	99.9

Set 3
SMILES: Cc1cc(-n2nc(Cc3cc(F)cc(C(F)(F)F)c3)nc2C)ccc1C(N)=O
Method: competition with immobilised ligand
Tested at: 1 µM
target	read-out	remaining binding
MAP3K14 (Homo sapiens, UniProt Q99558)	cell-free assay	100%
EGFR (Homo sapiens, UniProt P00533, del752-759)	cell-free assay	100%
KIT (Homo sapiens, UniProt P10721, V559D/V654A)	cell-free assay	97%
KIT (Homo sapiens, UniProt P10721, L576P)	cell-free assay	52%
CLK4 (Homo sapiens, UniProt Q9HAZ1)	cell-free assay	96%
KIT (Homo sapiens, UniProt P10721, T670I/V559D)	cell-free assay	100%
ERBB3 (Homo sapiens, UniProt P21860)	cell-free assay	100%
Tyrosine-protein kinase ABL1, phosphorylated (ABL1, Homo sapiens, UniProt P00519, M351T)	cell-free assay	100%
SGK3 (Homo sapiens, UniProt Q96BR1)	cell-free assay	80%
CILK1 (Homo sapiens, UniProt Q9UPZ9)	binding	100%
Tyrosine-protein kinase ABL1, phosphorylated (ABL1, Homo sapiens, UniProt P00519, Q252H)	cell-free assay	100%
PRKCD (Homo sapiens, UniProt Q05655)	cell-free assay	88%
PAK2 (Homo sapiens, UniProt Q13177)	cell-free assay	75%

Mixed results
Substance	target	test	system	conditions	how to read	measurement	result
PhoQ, residues 284 288 289 292 302 303 SSCCRF	PhoP, residues 12 14 15 18 19 SGWQI (Escherichia coli, UniProt P23836)	Sort-seq, measured: YFP reporter	E. coli	PhoQ-PhoP variant library, with: 10 µM Mg2+	baseline: high Mg2+ state, higher = stronger signaling	fold induction	16.5

Some of these lines once more (set 2):
target	remaining activity [%]
LYN (Homo sapiens, UniProt P07948)	90.4
IRAK4 (Homo sapiens, UniProt Q9NWZ3)	90.6
PRKG1 (Homo sapiens, UniProt Q13976)	77.1
MAP2K6 (Homo sapiens, UniProt P52564)	94.9
